Published values collected from several papers.
Numbered parts are unrelated; each lists some results of a single study. Changes are numbered by the printed parent chain.
Sequence of UniProt O15294 (whole entry, looked up): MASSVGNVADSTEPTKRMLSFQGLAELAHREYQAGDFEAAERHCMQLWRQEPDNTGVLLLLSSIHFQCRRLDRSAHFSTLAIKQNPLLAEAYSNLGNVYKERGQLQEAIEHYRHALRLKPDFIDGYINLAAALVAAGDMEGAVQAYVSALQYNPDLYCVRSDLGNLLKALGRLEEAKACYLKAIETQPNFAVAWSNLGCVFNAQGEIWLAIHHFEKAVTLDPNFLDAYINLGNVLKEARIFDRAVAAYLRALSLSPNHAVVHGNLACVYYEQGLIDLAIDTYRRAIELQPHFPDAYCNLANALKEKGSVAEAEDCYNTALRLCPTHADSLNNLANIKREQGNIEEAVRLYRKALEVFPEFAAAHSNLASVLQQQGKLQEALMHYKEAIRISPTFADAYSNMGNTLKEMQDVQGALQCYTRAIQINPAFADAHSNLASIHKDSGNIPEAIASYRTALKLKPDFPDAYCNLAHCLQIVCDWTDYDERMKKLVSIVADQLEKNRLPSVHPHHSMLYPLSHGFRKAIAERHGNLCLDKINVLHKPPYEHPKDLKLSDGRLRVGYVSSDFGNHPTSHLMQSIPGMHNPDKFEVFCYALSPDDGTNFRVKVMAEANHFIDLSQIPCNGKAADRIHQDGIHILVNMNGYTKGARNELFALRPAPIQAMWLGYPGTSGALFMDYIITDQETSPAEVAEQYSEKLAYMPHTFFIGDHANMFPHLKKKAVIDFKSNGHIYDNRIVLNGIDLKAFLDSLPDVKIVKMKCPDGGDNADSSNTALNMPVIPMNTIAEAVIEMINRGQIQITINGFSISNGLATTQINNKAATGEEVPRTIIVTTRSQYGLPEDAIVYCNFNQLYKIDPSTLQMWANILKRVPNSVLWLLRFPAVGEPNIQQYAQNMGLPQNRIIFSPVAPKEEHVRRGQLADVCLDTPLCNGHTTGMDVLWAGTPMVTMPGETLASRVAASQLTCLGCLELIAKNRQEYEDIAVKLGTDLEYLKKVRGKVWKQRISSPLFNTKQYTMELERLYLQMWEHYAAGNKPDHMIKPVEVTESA

Set 1
Target: CCNB3, cyclin fold, Cln2 fusion (human)
Technique: yeast growth competition, sequencing
Medium: yeast
Notes: strong parent motif
Relative to: not given
Direction: higher = stronger binding
Quantity: normalised enrichment score
Starting sequence: RBL2 docking peptide (human); STTRRRLFVENDS
F8S: 0.0798
D12L: 0.277
S1D: 1.03
T2E: 1.18
F8I: 0.195
R4Q: 0.157
S1F: 1.34
R6P: 0.00507

Set 2
Target: Histone acetyltransferase KAT6A, winged helix 1, GST fusion (KAT6A, Homo sapiens, UniProt Q92794, residues 1-85)
Technique: protein binding microarray
Molecule type: double-stranded DNA, one strand shown
Medium: in vitro
Concentration: not given
Notes: 8-mer, flanks averaged, mean of 2 arrays, mostly near background
Relative to: not given
Direction: higher = stronger binding
Quantity: E-score
Target sequence (chain): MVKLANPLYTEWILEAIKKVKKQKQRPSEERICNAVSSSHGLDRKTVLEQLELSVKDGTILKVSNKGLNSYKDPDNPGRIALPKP
CGACCTAC: 0.0406
TCGAACCA: -0.0862
CCCCTCGA: -0.0593
CCGTGGAA: 0.252
ACGGTCCA: 0.102
ATCGATTC: -0.151
AGAAGTGG: -0.144
CACTCAAC: -0.139

Other studies, line by line
FVNTWHYPKTANYHA — enrichment fold change (UDP-N-acetylglucosamine--peptide N-acetylglucosaminyltransferase 110 kDa subunit (OGT, Homo sapiens, UniProt O15294); binding, phage display NGS; peptide; concentration not given; relative to: input library): 3.25
PhoQ, residues 284 288 289 292 302 303 SLKLQV — fold induction (PhoP, residues 12 14 15 18 19 QWHVF (Escherichia coli, UniProt P23836); Sort-seq, measured: YFP reporter; E. coli; PhoQ-PhoP variant library, together with: 10 µM Mg2+; relative to: high Mg2+ state, higher = stronger signaling): 12.5

For quick reference, copied from above (set 1):
S1D: 1.03
R4Q: 0.157
